Measured values collected from several papers.
A part holds a random share of what one study measured.
Sequence of UniProt Q96D53 (whole entry, looked up): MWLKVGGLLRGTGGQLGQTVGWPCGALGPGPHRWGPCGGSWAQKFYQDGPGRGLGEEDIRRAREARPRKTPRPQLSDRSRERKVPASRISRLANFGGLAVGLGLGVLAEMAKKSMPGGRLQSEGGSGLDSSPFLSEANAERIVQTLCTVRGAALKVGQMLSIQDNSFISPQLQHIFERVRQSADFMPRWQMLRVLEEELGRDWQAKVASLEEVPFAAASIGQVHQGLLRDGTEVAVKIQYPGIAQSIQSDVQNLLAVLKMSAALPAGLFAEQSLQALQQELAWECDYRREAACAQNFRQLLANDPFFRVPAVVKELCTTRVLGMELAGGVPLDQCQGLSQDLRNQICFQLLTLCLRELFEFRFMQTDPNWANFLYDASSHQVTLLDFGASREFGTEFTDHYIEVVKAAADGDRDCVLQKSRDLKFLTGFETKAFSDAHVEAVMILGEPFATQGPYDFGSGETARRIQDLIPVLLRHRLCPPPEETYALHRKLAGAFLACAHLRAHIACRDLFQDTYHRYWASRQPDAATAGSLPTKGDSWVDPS
Sequence of UniProt P78362 (whole entry, looked up): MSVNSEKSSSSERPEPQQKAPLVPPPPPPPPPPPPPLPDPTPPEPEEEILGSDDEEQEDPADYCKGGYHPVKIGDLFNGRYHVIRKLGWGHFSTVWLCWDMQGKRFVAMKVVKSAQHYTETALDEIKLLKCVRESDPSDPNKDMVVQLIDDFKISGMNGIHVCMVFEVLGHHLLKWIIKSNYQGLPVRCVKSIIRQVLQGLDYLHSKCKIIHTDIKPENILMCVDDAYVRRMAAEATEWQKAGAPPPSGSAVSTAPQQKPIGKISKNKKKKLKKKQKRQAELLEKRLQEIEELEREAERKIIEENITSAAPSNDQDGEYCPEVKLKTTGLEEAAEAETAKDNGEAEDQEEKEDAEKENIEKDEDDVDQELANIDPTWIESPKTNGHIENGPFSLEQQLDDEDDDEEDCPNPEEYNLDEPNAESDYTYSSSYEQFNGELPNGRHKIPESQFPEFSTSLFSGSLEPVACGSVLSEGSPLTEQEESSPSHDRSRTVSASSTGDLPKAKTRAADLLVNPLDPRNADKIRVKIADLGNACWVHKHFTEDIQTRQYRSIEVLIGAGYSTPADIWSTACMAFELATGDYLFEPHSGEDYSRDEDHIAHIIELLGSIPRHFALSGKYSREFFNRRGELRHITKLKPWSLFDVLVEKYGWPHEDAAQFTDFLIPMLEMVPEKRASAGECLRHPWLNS
Sequence of UniProt Q86Y07 (whole entry, looked up): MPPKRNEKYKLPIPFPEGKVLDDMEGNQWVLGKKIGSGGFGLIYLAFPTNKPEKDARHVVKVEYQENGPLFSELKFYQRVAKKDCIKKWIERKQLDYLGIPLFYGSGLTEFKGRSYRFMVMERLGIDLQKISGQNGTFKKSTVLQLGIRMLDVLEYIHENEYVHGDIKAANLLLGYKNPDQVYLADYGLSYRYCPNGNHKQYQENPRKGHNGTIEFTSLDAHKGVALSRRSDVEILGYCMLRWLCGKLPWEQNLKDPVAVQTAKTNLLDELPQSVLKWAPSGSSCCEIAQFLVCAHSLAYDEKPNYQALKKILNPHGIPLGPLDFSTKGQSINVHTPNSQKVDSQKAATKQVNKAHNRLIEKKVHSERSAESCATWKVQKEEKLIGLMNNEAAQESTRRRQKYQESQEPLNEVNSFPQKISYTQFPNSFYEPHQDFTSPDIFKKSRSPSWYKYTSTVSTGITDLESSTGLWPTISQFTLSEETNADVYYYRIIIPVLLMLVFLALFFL
Sequence of UniProt Q9BRS2 (whole entry, looked up): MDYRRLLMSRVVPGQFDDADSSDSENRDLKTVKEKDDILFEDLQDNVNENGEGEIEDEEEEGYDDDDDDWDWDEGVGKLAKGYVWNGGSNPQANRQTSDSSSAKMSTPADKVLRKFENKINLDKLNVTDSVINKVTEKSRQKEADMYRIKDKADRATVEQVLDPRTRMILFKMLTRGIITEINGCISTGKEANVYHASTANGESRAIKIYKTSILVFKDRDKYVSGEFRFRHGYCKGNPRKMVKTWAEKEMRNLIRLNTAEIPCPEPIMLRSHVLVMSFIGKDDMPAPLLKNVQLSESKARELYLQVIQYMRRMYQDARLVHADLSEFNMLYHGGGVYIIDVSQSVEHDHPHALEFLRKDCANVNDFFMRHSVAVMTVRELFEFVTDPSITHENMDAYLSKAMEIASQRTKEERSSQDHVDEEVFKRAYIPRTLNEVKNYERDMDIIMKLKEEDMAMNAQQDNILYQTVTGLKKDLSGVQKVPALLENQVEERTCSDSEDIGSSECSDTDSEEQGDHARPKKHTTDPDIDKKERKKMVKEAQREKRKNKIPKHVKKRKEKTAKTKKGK
Sequence of UniProt P42336 (whole entry, unmodified, looked up): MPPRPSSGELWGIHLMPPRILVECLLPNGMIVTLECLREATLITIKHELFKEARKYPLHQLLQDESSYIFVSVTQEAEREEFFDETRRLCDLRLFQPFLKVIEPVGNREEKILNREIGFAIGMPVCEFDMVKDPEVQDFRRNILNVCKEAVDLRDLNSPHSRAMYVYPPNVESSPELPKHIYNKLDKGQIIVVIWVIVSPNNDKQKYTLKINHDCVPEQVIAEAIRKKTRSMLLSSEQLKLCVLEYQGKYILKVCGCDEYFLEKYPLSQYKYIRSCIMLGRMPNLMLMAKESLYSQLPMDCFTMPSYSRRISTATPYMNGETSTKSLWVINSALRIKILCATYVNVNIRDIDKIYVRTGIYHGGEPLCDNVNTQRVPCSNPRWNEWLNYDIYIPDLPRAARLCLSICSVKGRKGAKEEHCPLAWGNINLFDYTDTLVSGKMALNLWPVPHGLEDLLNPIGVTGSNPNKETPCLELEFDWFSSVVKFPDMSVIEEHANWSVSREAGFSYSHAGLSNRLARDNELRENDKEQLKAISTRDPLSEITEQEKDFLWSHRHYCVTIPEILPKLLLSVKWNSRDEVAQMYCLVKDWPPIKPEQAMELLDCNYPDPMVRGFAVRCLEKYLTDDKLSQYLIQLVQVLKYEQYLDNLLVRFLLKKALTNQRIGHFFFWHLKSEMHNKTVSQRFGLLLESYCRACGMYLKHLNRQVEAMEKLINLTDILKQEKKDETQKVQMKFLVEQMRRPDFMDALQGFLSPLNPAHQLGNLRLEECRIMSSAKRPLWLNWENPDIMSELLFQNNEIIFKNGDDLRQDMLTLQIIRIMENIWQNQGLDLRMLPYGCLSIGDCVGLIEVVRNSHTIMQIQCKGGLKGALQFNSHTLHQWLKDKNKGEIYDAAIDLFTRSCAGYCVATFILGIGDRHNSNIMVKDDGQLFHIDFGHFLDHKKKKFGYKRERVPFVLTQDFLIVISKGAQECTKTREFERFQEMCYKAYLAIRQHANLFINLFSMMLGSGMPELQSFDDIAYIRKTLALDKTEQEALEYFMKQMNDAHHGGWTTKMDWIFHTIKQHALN

Block 1
Cell line: mouse MPNST tumor cells
Technique: high-content immunofluorescence imaging
Measured: nuclear SOX9
Tested at: 10 µM
Time: 12 h
Notes: mean of 2 replicates
Baseline: DMSO control
Reading: higher = more nuclear SOX9
Structure (SMILES) | nuclear SOX9 intensity
CN1[C@@H]2CC[C@H]1C[C@@H](OC(=O)c1c[nH]c3ccccc13)C2 | 111 % of DMSO
Fc1ccc(Cl)cc1-c1nc(Nc2ccncc2)c2nccnc2n1 | 124 % of DMSO
CC(C)(CO)Cc1cc(C(C)(C)C)c(O)c(C(C)(C)C)c1 | 107 % of DMSO
CCn1c(=O)n(C2CCCN(c3nccc(-c4cc5ccccc5o4)n3)C2)c2ccccc21 (stereo not drawn) | 134 % of DMSO
NC(=O)c1ccc(F)c2c1C[C@@H](N(C1CCC1)C1CCC1)CO2 | 98 % of DMSO
O=C(c1ccc(F)cc1)N1CCc2nc(COc3ccccc3)oc2C1 | 96.3 % of DMSO
Nc1nc2c(c(N3CC[C@@H](N)C3)n1)CCCc1ccccc1-2 | 170 % of DMSO
O=C(O)[C@H](Cc1ccc(OC(=O)N2CCCC2)cc1)NC(=O)[C@@H]1CCCN1S(=O)(=O)c1ccccc1 | 89.1 % of DMSO

Block 2
Cell line: HaCaT
Tested at: 100 µM
Time: 18 h
SMILES | viability
Cc1cc(=O)n(-c2ccccc2)n1C | 111%
O=C(Oc1ccccc1C(=O)O)c1ccccc1O | 116%
NS(=O)(=O)c1cc2c(cc1Cl)NC(C(Cl)Cl)NS2(=O)=O (stereo not drawn) | 96.9%
Clc1ccc(CCC(Cn2ccnc2)Sc2c(Cl)cccc2Cl)cc1 (stereo not drawn) | 16.4%
COc1ccc2cc3[n+](cc2c1OC)CCc1cc2c(cc1-3)OCO2 | 121%
Cc1cn([C@@H]2C[C@@H](O)[C@H](CO)O2)c(=O)[nH]c1=O | 114%
CN(C)CCc1c[nH]c2ccc(C[C@H]3COC(=O)N3)cc12 | 118%
CC1(C)C[C@@H]1C(=O)N/C(=C\CCCCSC[C@H](N)C(=O)O)C(=O)O | 111%

Block 3
Target: Calcium/calmodulin-dependent protein kinase type II subunit alpha (CAMK2A, Homo sapiens, UniProt Q9UQM7)
Sequence of UniProt Q9UQM7 (whole entry, looked up): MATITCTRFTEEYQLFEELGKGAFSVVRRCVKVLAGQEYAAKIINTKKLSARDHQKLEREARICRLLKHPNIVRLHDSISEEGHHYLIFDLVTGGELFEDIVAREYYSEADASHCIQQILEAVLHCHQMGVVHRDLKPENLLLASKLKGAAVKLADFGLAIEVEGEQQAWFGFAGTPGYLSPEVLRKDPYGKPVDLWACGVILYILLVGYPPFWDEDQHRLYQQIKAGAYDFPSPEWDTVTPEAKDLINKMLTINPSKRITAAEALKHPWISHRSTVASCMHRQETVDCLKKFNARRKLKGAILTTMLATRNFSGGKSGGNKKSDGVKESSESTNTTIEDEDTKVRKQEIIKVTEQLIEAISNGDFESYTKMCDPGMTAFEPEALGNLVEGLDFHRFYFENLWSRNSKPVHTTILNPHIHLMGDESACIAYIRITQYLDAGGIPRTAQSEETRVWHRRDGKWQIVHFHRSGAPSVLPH
Read-out: enzyme activity
Action: inhibitor
Tested at: 10 µM
Structure (SMILES) | inhibition [%]
Clc1ccc(C(Cn2ccnc2)OCc2ccsc2Cl)c(Cl)c1 (stereo not drawn) | 3
Cn1c(=O)c(Oc2ccc(F)cc2F)cc2cnc(NC(CCO)CCO)nc21 | -4
C=CC1(C)CCC(C(C)(C)O)O1 (stereo not drawn) | 9
COC(=O)c1cc(O)c(O)c(O)c1 | -5
Oc1cc(O)c2cc(O)c(-c3ccc(O)c(O)c3)[o+]c2c1 | -49
C=C1C[C@@]23CC[C@H]4[C@@](C)(CCC[C@@]4(C)C(=O)O[C@@H]4O[C@H](CO)[C@@H](O)[C@H](O)[C@H]4O)[C@@H]2CC[C@]1(O[C@@H]1O[C@H](CO)[C@@H](O)[C@H](O)[C@H]1O[C@@H]1O[C@H](CO)[C@@H](O)[C@H](O[C@@H]2O[C@H](CO)[C@@H](O)[C@H](O)[C@H]2O)[C@H]1O)C3 | 36
CC(=O)N[C@H]1[C@@H](O)[C@H](O)[C@@H](CO)O[C@H]1O | 5
CN(C)[C@@H]1C(O)=C(C(N)=O)C(=O)[C@@]2(O)C(O)=C3C(=O)c4c(O)cccc4[C@@](C)(O)[C@H]3[C@H](O)[C@@H]12 | 2

Block 4
SMILES: CCCCN(CCCC)C(=O)CN1C[C@H](c2cc(OC)c3c(c2)OCO3)[C@@H](C(=O)O)[C@@H]1CC(C)(C)CCC
Read-out: cell-free assay
Technique: competition with immobilised ligand
Tested at: 1 µM
target | remaining binding [%]
Atypical kinase COQ8B, mitochondrial (COQ8B, Homo sapiens, UniProt Q96D53) | 0
Serine/threonine-protein kinase WNK1 (WNK1, Homo sapiens, UniProt Q9H4A3) | 72.9
SRSF protein kinase 2 (SRPK2, Homo sapiens, UniProt P78362) | 100
Serine/threonine-protein kinase RIO1 (RIOK1, Homo sapiens, UniProt Q9BRS2) | 65.8
Epidermal growth factor receptor (EGFR, Homo sapiens, UniProt P00533, L858R/T790M) | 60.6
Phosphatidylinositol 4,5-bisphosphate 3-kinase catalytic subunit alpha isoform (PIK3CA, Homo sapiens, UniProt P42336, E545K) | 70
Serine/threonine-protein kinase VRK2 (VRK2, Homo sapiens, UniProt Q86Y07) | 72.8
Tyrosine-protein kinase ABL1, phosphorylated (ABL1, Homo sapiens, UniProt P00519, Y253F) | 86.7
Serine/threonine-protein kinase SIK2 (SIK2, Homo sapiens, UniProt Q9H0K1) | 100
Receptor-type tyrosine-protein kinase FLT3 (FLT3, Homo sapiens, UniProt P36888, ITD) | 100
Glycogen synthase kinase-3 alpha (GSK3A, Homo sapiens, UniProt P49840) | 92.3
Serine/threonine-protein kinase 36 (STK36, Homo sapiens, UniProt Q9NRP7) | 100
Ribosomal protein S6 kinase alpha-2, N-terminal kinase domain (RPS6KA2, Homo sapiens, UniProt Q15349) | 100
Mitogen-activated protein kinase 4 (MAPK4, Homo sapiens, UniProt P31152) | 100
Serine/threonine-protein kinase ICK (CILK1, Homo sapiens, UniProt Q9UPZ9) | 80.2

Excerpt of the above (block 2):
SMILES | viability
CC1(C)C[C@@H]1C(=O)N/C(=C\CCCCSC[C@H](N)C(=O)O)C(=O)O | 111%
O=C(Oc1ccccc1C(=O)O)c1ccccc1O | 116%
COc1ccc2cc3[n+](cc2c1OC)CCc1cc2c(cc1-3)OCO2 | 121%
